# Published values gathered from unrelated publications.
# Every numbered part comes from another study and shows a few of its results, in no order. Positions count from the first letter of the parent shown.

# Series 1
# Target: CCNB3, cyclin fold, Cln2 fusion (human)
# Method: yeast growth competition, sequencing
# Sample: yeast
# Notes: strong parent motif
# Reference: not given
# Direction: higher = stronger binding
# Starting sequence: BRCA2 docking peptide (human); PSIKRNLLNEFDR
Substitution,normalised enrichment score
E10G,-0.136
K4F,0.223
R5K F11L,-0.352
I3K,0.463
S2H,0.875
L7C,0.402
N6E,0.24

# Series 2
# Target: Ras GTPase-activating protein-binding protein 1, RRM domain (G3BP1, Homo sapiens, UniProt Q13283)
# Chain of UniProt Q13283 (whole entry, looked up): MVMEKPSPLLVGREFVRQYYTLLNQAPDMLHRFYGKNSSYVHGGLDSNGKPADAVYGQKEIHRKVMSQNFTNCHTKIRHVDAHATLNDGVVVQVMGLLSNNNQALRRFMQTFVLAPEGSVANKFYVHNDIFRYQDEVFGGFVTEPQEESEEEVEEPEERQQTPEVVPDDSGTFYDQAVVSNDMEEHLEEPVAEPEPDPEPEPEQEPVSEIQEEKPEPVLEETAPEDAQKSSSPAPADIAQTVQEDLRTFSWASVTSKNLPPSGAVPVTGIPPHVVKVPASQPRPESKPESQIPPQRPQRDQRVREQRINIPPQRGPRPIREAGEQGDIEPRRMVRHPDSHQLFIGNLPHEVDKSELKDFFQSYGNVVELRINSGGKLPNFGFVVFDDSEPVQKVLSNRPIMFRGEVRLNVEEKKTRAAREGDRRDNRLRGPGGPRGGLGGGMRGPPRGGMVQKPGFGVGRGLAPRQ
# Method: RNA Bind-n-Seq
# Molecule type: RNA
# Sample: in vitro
# Tested at: 1 µM
# Notes: whole 134-nt RNA, ends assumed
# Together with: 150 mM KCl
# Reference: input library
# Direction: higher = stronger binding
# All sequences stand within: GGGAGUUCUACAGUCCGACGAUC … UGGAAUUCUCGGGUGUCAAGG
Sequence,log2 enrichment
UAACUUUAGAGGAGGAUCUGAUGGAUAGGGCAGUGGACGUGGAUUUGGGGAUGGCUAUAAUGGGUAUGGAGGAGGACCUGGAGGUGGCAA,-0.208
UCAUUGCAUGAAAAGUGGAAAAGUUUAGAUCUAUGGAAACAGAACUGUUGCCUAUAUGGAAAAUCAGUGCCUUGUGGCAAUACAGGUAAG,-0.234
AAGUCCUGUGCUACACAUCGUAUGUACCGAAUCGGAAAAAAAGGAAAGGUUUUUGGAAAGUAUUAUGUUACGCCGUUCGGAUCUGCACUU,-0.196
ACCAUGCAGGUGGGCAUCUUUGUGAAGUGGGGCAAGGGGGGGAUAGGGAGGGGGGUAACACUUUGGGAACAGGUGGUCCCAGGUCGUUUC,-0.377
UGGCCCUCAAGCACUGCACAGAGGCCCUUCUUUCUCUUGGCCAGUACUCCAUGGCAGACUUCACAGGGCCUUGUCCAUUGGAAAUAGAAC,-0.261
CCUCAAGUCCUGUGCUACACAUCGUAUGUACCGAAUCGGGAGGGGAGGAGGGAAAGUAUUAUGUUACGCCGUUCGGAUCUGCACUUCCAG,-0.0737
GCAGGAAGGAAAAACAAAUGGAAAUGCUUCGGAUAGUGGCAGGGGUGGGGGUUGCUAAGGAAAGGGUGGGAUGGGAGUGGGUAAAGAGUU,1.24
UGAAUCCUUCCUUGAUGAUGAAGAGGUAUGUCAACAAGGGUAAUAAUUUGUUUUCUUCUGAUUACUCUCAUAUUUUUAUUAUCUUUUAUU,-0.25
CAAGUCCUGUGCUACACAUCGUAUGUACCGAAUCGGGUUUGGUUUGGGUUUGGGGAAAGUAUUAUGUUACGCCGUUCGGAUCUGCACUUC,-0.284

# Series 3
# Target: Sal-like protein 4, full length isoform B (SALL4, Homo sapiens, UniProt Q9UJQ4-2, residues 1-616)
# Method: universal PBM
# Molecule type: double-stranded DNA, one strand shown
# Sample: in vitro
# Tested at: not given
# Notes: 8-mer, flanks averaged, mean of replicates
# Direction: higher = stronger binding
Sequence,E-score
CAGCCCTC,-0.256
AAGTACGG,-0.0907
GATGTTAC,0.215
CCTAAGTA,0.0552
GCGACACA,-0.158
GCGCGTGA,-0.198
GCTAGCCA,-0.234
ATCATAAG,0.349

# Mixed results
Substance,target,test,test system,conditions,scale,quantity,value
"PhoQ, residues 284 288 289 292 302 303 NLSRDF","PhoP, residues 12 14 15 18 19 TQALL (Escherichia coli, UniProt P23836)","Sort-seq, item: YFP reporter",E. coli,"PhoQ-PhoP variant library, together with: 10 µM Mg2+","reference: high Mg2+ state, higher = stronger signaling",fold induction,10.3
